Measurements collected from several papers.
Parts stem from different laboratories: compare values within a part only. Substitutions count along the parent as printed.

Series 1
Target: Fragile X messenger ribonucleoprotein 1, C-terminal low-complexity region (Fmr1, Mus musculus, UniProt P35922)
Method: RNA Bind-n-Seq
Form: RNA
Medium: in vitro
Concentration: 200 nM
Setting: whole 134-nt RNA, ends assumed
With: 150 mM LiCl
Relative to: input library
Reading: higher = stronger binding
All molecules: 7-deaza-guanosine replaces G
Shared flanks, not repeated: GGGAGUUCUACAGUCCGACGAUC … UGGAAUUCUCGGGUGUCAAGG
Strand | log2 enrichment
GCAGGAAGUAAAAACAAAUGGAAAUGCUUCGGAUAGUGGCAGGGGUGGGGGUUGCUAAGGAAAGGGUGGGAUGGGAGUGGGUAAAGAGGU | 1.68
CUCAAGUCCUGUGCUACACAUCGUAUGUACCGAAUCGGGUUGGGGUUGGUUGGGAAAGUAUUAUGUUACGCCGUUCGGAUCUGCACUUCC | -0.344
CACAGACAACACGCACCCACACAGACACAGAGGGAAGGGGUUGGAAUGGGGACAGGGUGCACAGCAGGGCGGGGUAGGACCCCAGCCCCU | -0.655
UGGCCCUGGUGGCAUGCGGGGAGGAAGAGGUGGCCUCAUGGAUCGUGGUGGUCCCGGGGGAAUGUUCAGAGGUGGCCGUGGUGGAGACAG | -0.762
CCUGUGCUACACAUCGUAUGUACCGAAUCGGGGAAAAAAAGGGGAAAAAAAGGGGUGGGGAAAGUAUUAUGUUACGCCGUUCGGAUCUGC | 0.823
UCCUGUGCUACACAUCGUAUGUACCGAAUCGGGCCCCCGGGGCCCCCGGGGCCCCCGGGGAAAGUAUUAUGUUACGCCGUUCGGAUCUGC | -1.75
AGUCCUGUGCUACACAUCGUAUGUACCGAAUCGGUUUUUGGGGUUUUUGGGUUUUUGGAAAGUAUUAUGUUACGCCGUUCGGAUCUGCAC | -0.939
GUCCUGUGCUACACAUCGUAUGUACCGAAUCGGGGUGGGGUUUUUGGGGAAAAAGGGGAAAGUAUUAUGUUACGCCGUUCGGAUCUGCAC | -0.193
GUCCUGUGCUACACAUCGUAUGUACCGAAUCGGGGAAAAAGGGAAAAAGGAAAAAGGGAAAGUAUUAUGUUACGCCGUUCGGAUCUGCAC | 0.229
GUCCUGUGCUACACAUCGUAUGUACCGAAUCGGGGAAAGGGGAAAAAAAGGGGAGGGGAAAGUAUUAUGUUACGCCGUUCGGAUCUGCAC | 1.22
UGGCAGCGGCCAUGGACCGCUUCGUUUGGACCAGCGGCCUCCUGGAGAUCAACGAGACCCUGGUGAUCCAGCAGCGCGGGGUGCGAAUCU | -2.5

Series 2
Target: Sal-like protein 4, full length isoform B (SALL4, Homo sapiens, UniProt Q9UJQ4-2, residues 1-616)
Method: universal PBM
Form: double-stranded DNA, one strand shown
Medium: in vitro
Concentration: not given
Setting: 8-mer, flanks averaged, mean of replicates
Reading: higher = stronger binding
Strand | E-score
CTGCGGAC | -0.287
CTATACCC | 0.116
AAGTGTAA | 0.13
CGACCACC | -0.29
ATAAATTC | 0.322
CTCCACAA | -0.0858
GGAAGATA | 0.157
AACGAAGT | 0.109
GAGTTTCC | -0.0175
GACACACA | 0.155
CACTGGCA | -0.112
GACCCCGA | -0.173
AGCGGGAT | -0.166
CTTGTTGA | -0.0399
CAGTGACC | -0.348
CCACCGGA | -0.152
GACAAGAA | 0.0945
CTCAAATC | -0.0241
CGGTAAGC | -0.162
CTTGATGA | 0.0806
AATAAGAG | 0.221
GATTGGGC | -0.105
AAATTGGG | 0.174
ATGGCATC | 0.0471

Series 3
Target: ABI1, truncated, D143A, DHFR fusion (Arabidopsis thaliana)
Method: DHFR PCA, deep sequencing
Medium: yeast
Setting: methotrexate growth selection, single substitutions
With: (+)-ABA 200 µM
Relative to: wild-type fitted maximum
Reading: higher = stronger binding
Parent: PYL1, truncated, DHFR fusion (Arabidopsis thaliana); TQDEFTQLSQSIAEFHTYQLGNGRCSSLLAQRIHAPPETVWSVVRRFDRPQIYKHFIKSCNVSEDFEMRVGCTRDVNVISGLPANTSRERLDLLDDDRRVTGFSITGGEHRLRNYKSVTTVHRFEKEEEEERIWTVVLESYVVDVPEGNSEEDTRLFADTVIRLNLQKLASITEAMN
Change | relative binding score
I33A | 45.9%
D3H | 91%
E152H | 90.5%
S140P | 17.5%
E64C | 98%
Q7V | 98.1%
I133T | 109%
W134A | 100%
R69G | 96.5%
Y115L | 40.7%
L28A | 67.6%
V143I | 45.5%
S63D | 102%
L164D | 24.1%
N77D | 104%
I79N | 94%
K126R | 107%
E127W | 91.4%
F124A | 102%
L20D | 102%
V136A | 76.7%

Series 4
Target: Histone acetyltransferase KAT6A, winged helix 2, GST fusion (KAT6A, Homo sapiens, UniProt Q92794, residues 85-181)
Method: protein binding microarray
Form: double-stranded DNA, one strand shown
Medium: in vitro
Concentration: not given
Setting: 8-mer, flanks averaged, mean of 2 arrays, mostly near background
Relative to: not given
Reading: higher = stronger binding
Target sequence (chain): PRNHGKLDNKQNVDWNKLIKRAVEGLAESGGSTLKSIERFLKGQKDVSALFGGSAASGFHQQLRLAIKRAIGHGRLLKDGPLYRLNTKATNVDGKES
Strand | E-score
GAACCGGC | 0.104
ACCTTTGC | -0.0656
CAACCACC | -0.0611
CTCCGATC | 0.0882
CTGGCCAC | -0.0341
AGTTGCCC | 0.138
ATACTCCC | 0.023
CTCCATAC | -0.105
GGTGGAGA | -0.171
CAGGTGAA | 0.0598
GCCTACCA | -0.118
AACATCGA | -0.0861
CCACCTCG | -0.0107
ATCGTTAG | -0.0483
CAATATTA | 0.117
CTGAAATA | 0.0835
ACTGAACC | -0.0113
CCCCACAC | 0.0204
AGTCGGAA | -0.0882
AAAGTGGA | 0.0129
GCGTTAGC | 0.118
CCATCCAA | 0.0698
GCTCGGGA | 0.0586
ACTCGGAG | 0.145
TCAATTAA | 0.047

Series 5
Target: RNA binding protein fox-1 homolog 2, RRM domain, GST-SBP tag (RBFOX2, Homo sapiens, UniProt O43251-10, residues 100-194)
Method: RNA Bind-n-Seq
Form: RNA
Medium: in vitro
Concentration: 365 nM
Setting: natural RNA segment, single round, ends assumed
Relative to: no-protein control
Reading: higher = stronger binding
Shared flanks, not repeated: GGGAGUUCUACAGUCCGACGAUC … UGGAAUUCUCGGGUGCCAA
Construct (chain): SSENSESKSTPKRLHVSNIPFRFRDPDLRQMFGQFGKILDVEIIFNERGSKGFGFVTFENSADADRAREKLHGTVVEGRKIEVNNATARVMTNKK
Strand | RBNS enrichment (R)
ACUCUUCGGACUUCAGAGCACUUUAUGUAGUUGAAUAAACCCUAGAGGUUGAGGUGACUAAAAGGUUAGCCUCUCAUAACCCAGCCAUGGAAGUUUUGUUUACUAGGAGC | 0.417
AAUACUUGACUUAGCAUAUCUUUCUUCUUUAGACUUACAUAAUGAUAUUCAUCUCUCCAUUAGCAAUUGAAUCCAGGCAUAACCGGGCUCAGUUACACAGCUUGUCUGUG | 0.486
UUUGUACUCCCAAUAACCUGAAGAUUCCAUGUAACUCUUAUGUACGCGCAUGAAUACUUUAAAUGCCAACCUUUUCAAUCAUUUGAUAAAGUCUUUGUAGUCACUCAGUC | 0.359
UAUCUAAUUUCAUUCAAACCUCACAACAGUCUUGUGAGGCCCUUAUAUAAUUACUCCCAUUUUGCAGAUGAAGUAACUGAGGCUUAGAAAGGUUAAUAGCACCGGGGAAC | 0.62
UGGACUCAGUUUAACCUGUAUCCACUCUCCUUAGCCAAAGUGUGCGUCUGUCGAAAGCUGAAGUGCAGAGGGCAGGGAAGCAAACACACCAGAGCUCUUUCUGGUCAGAU | 0.35
GCAGAUGCAUGGGAUUCUGGAUUUUUUUGUUGCUUUUUAGUUUAAUGGGACUUUAAAAGUAAUUGAGGAGAAAGAACCGUGAUGUUCCCUGUUUCUCCAGUAAAGGACUG | 2.24
GUGAAGGCAUCAACUUAUGUAAAAACUCAGAAGGAAGGCUCCUCUGAUAAAAACACAGCUCCUUUAUUAUGCUGCUUUUCUUGUUCACUUUACACACUAAGUAAACACUU | 0.337
CCCACCUCAUUGUGUACCAUGAGGGGUCCUUGGGAAAUGUCUUACCUCUUGUGUUGAAUGGAGACCUGGGUUGAGAUGUGUCUGCUCUUGUAGGAAGAUCUUUUGUAUCA | 1.32
GGGACCAAGGCUGGAAAAGUGAUGAAGCUUCCUCCCACUGCUGCAAGAAAAAGGCAGAGGCUUCAGUUUUCUCUCGCCCAAGUCCCUUGCUCCUCCCAACUGCGGCUAAG | 1.3
AGCGUGGCAUGCAGGUGUCUUUGCUGUGUUUUUCUCCACUUCUAAAUGGUUCCUGGUUCCUUUCUUCCUCGUUUGUUACUUUAGAGCAAGUUUGCCCAUAGUCUUGAAUG | 0.647
GUCCUCCUGUUCUUGGGAAGCGUUGCCUGACGGCUUCUCGGCUCUACCCUCACCCUUCUGGCCAGGAUCCCGCAGGGCAACAGCCCCAUCUGCUUGGCUGACCCCACACC | 0.664
GGCCUUGGAAUUUUGCUCCUUUAGUGGUAAGCAUGGGGCAUGGUUUGCUUUGGGGGGAGGAUGUUAAAAUCCAGAACUUAGCUAGUUAGUACCUGCAAGGCAGGUGAGGG | 4.67

Some of these lines once more (series 1):
Strand | log2 enrichment
GCAGGAAGUAAAAACAAAUGGAAAUGCUUCGGAUAGUGGCAGGGGUGGGGGUUGCUAAGGAAAGGGUGGGAUGGGAGUGGGUAAAGAGGU | 1.68
CUCAAGUCCUGUGCUACACAUCGUAUGUACCGAAUCGGGUUGGGGUUGGUUGGGAAAGUAUUAUGUUACGCCGUUCGGAUCUGCACUUCC | -0.344
CACAGACAACACGCACCCACACAGACACAGAGGGAAGGGGUUGGAAUGGGGACAGGGUGCACAGCAGGGCGGGGUAGGACCCCAGCCCCU | -0.655
UGGCCCUGGUGGCAUGCGGGGAGGAAGAGGUGGCCUCAUGGAUCGUGGUGGUCCCGGGGGAAUGUUCAGAGGUGGCCGUGGUGGAGACAG | -0.762
CCUGUGCUACACAUCGUAUGUACCGAAUCGGGGAAAAAAAGGGGAAAAAAAGGGGUGGGGAAAGUAUUAUGUUACGCCGUUCGGAUCUGC | 0.823
UCCUGUGCUACACAUCGUAUGUACCGAAUCGGGCCCCCGGGGCCCCCGGGGCCCCCGGGGAAAGUAUUAUGUUACGCCGUUCGGAUCUGC | -1.75
AGUCCUGUGCUACACAUCGUAUGUACCGAAUCGGUUUUUGGGGUUUUUGGGUUUUUGGAAAGUAUUAUGUUACGCCGUUCGGAUCUGCAC | -0.939
GUCCUGUGCUACACAUCGUAUGUACCGAAUCGGGGUGGGGUUUUUGGGGAAAAAGGGGAAAGUAUUAUGUUACGCCGUUCGGAUCUGCAC | -0.193
GUCCUGUGCUACACAUCGUAUGUACCGAAUCGGGGAAAAAGGGAAAAAGGAAAAAGGGAAAGUAUUAUGUUACGCCGUUCGGAUCUGCAC | 0.229
GUCCUGUGCUACACAUCGUAUGUACCGAAUCGGGGAAAGGGGAAAAAAAGGGGAGGGGAAAGUAUUAUGUUACGCCGUUCGGAUCUGCAC | 1.22
UGGCAGCGGCCAUGGACCGCUUCGUUUGGACCAGCGGCCUCCUGGAGAUCAACGAGACCCUGGUGAUCCAGCAGCGCGGGGUGCGAAUCU | -2.5
